Experimental data pooled from the literature.
Every numbered part comes from another study and shows a few of its results, in no order. Positions count from the first letter of the parent shown.

Sample 1 — technique: DHFR PCA, deep sequencing; sample: yeast; added: (+)-ABA 17 µM; reference: wild-type fitted maximum; reading: higher = stronger binding; measurement: relative binding score
Target: ABI1, truncated, D143A, DHFR fusion (Arabidopsis thaliana)
Notes: methotrexate growth selection, single substitutions
Starting sequence: PYL1, truncated, DHFR fusion (Arabidopsis thaliana); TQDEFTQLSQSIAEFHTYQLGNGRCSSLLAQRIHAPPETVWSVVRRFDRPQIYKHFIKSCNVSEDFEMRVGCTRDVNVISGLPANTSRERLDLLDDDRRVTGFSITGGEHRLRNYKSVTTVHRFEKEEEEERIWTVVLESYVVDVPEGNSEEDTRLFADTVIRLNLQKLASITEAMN
L94D: -1.89%
T73N: 61.5%
Q51Y: 44.4%
V161H: 1.21%
E14P: 15%
T1G: 80.1%
I105K: -5.78%
A84E: 16.9%
P50G: 2.64%
V76R: -2.07%
T120P: 1.98%
F66G: 83.6%
E125G: 85%
K58R: 86.6%
S171Q: 103%
R32V: 85.5%

Sample 2 — technique: protein binding microarray; molecule type: double-stranded DNA, one strand shown; sample: in vitro; tested at: not given; reference: not given; reading: higher = stronger binding; measurement: E-score
Target: Histone acetyltransferase KAT6A, winged helix 2, GST fusion (KAT6A, Homo sapiens, UniProt Q92794, residues 85-181)
Notes: 8-mer, flanks averaged, mean of 2 arrays, mostly near background
Target sequence (chain): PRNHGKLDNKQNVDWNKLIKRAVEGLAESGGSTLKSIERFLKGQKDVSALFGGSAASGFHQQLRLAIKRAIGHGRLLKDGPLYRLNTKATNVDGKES
GAACCACA: 0.142
CACATTAG: -0.117
AACAATTC: -0.0254
CCCCGATC: 0.147
ACCAGGGA: -0.00553
TGTAGACA: 0.0398
ATTGCCAC: 0.112
AGGCCGAC: -0.099
ATCGTAGG: -0.166
GATGACGC: -0.00322
CGGCCTCC: -0.0419
AGCCATGC: 0.0522
ACGGACAC: -0.0387
GGAACCAA: 0.124
TAGAAGAA: -0.00086
CACCCACA: 0.18
ATAGCCTC: -0.14
TGAAAACA: 0.0173
ATAGACCG: 0.0525
CGATGATA: 0.155
GGTGAAGA: 0.0769
ACTTTTAT: -0.0586
GGGGTTTA: -0.197
CTCTGTCC: 0.0782
CTCGCGAG: 0.122

Sample 3 — technique: RNA Bind-n-Seq; molecule type: RNA; sample: in vitro; tested at: not given; reference: input RNA pool; reading: higher = stronger binding; measurement: bound/input enrichment
Target: RING finger protein unkempt homolog, zinc fingers 1-6, GST-SBP tag (UNK, Homo sapiens, UniProt Q9C0B0, residues 30-357)
UniProt Q9C0B0, sequence (30-357, looked up): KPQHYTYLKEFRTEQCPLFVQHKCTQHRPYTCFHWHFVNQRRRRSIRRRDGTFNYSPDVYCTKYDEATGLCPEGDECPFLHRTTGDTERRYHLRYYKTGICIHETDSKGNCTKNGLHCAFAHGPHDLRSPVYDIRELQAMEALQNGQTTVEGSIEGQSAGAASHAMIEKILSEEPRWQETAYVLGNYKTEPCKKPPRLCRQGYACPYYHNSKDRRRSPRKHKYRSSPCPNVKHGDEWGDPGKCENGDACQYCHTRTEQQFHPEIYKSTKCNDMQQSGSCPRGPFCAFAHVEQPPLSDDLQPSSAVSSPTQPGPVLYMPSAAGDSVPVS
Notes: RNA with constant flanks, human and mouse sites, ends assumed
Shared flanks, not repeated: GGGAGUUCUACAGUCCGACGAUC … CAACAGAGGAUUGAGCAUCA
GGAUUGACCUAGUCUUGCUCCGACCUCAUAAACAAUCCACUCUGUAUUGUGCCCUGUCAAACUAGUGUGUGUGGUGUUAAUGAUGCUGGGAUUUUAUUUAUUGUAAAGCAAUGAGUCUGG: 0.515 ratio
CUGGGACCUGAAGGACUGGAUCUGAUUGAGAAGCUGCUCCAGAACAGAAUUACAAUUGUAGAUCGGUUCCUUAAUUCCUCGAGCGAUCAUAAGUUUCAAGUUCUCCAAGAUAGUUGUAAA: 0.463 ratio
GUGUUCCCCUUUGUGGGUGGGUUCCUAUGAUACUUAUUAUAGAACACAGUGGAUCCUUUUUGAAUGUUCGUGGAAGGGCCAGGAGUUCCUGUGAAACCAGGAUACUGCAGCUUUAUUAAA: 0.244 ratio
AUUGUGGGAGCGCUGAUGGCCAGUGGCAAAGAAGUGGCUGGGAAGAUCCCCAAAGGGAAGUUAGUCGACUUUGAAGCCAUGACAGCCCCUGGCUCAGAGGCCUUCAGCAAAAUAGCAAAA: 0.282 ratio
GAGGUGGGGGCGCUGCGGGCGCGUGCGCGCCGGCCGCCUUCCCGUUGUCGCCCGCGUUCUUGCCGUCCCGGCAUACGUCGGCGCGCGCCUGCGCCUGCAUCCGGCUUCGGACGCUUGCGA: 0.394 ratio
ACCCUGGAAGAAGAAACAGUGAUGCUUGCAAUGACUCCAGAUGAUUUACAGGAGAAAGAAGUAGCUUAUUGUUCCACAUAUACACACUGUGAGAUUCAUCCCUCAAUGAUCCUUGGUGUC: 0.255 ratio
AGGAACGGUGGGAGUGGGUUAAAUACAGUGUCAGAUUCUUCUUGGAGGCAUAGUCAAGUUCCCAGAUCUUCAUCAAUGGUACUUGGUUCAUUUGGAACAGACUUGAUGAGAGAAAGGAGA: 0.643 ratio
GCCAAAUACGUCUGGGCAGCCACGGCCGGGGGCGUCUUUCAGAGCAUUACGCCAAUAGAAAUAGAUAUGAUUGUAGGAAAAGACCGGGAAGGUUUCUUUACCAACGGUUUGACUCUUGGC: 0.743 ratio
AGUAACUAACCACCAAGAACCUCUUCUGUAACCCAGAGUGAGAAAGCUGUAGGCAUAUUCUAGCAGGUAUCAAUGUCUCUGGCAUCCUUUAGAGCCUUACUCUGGUUAACUGACUCUCAG: 0.331 ratio
AGGGAGCAACACAUUCGGAGAGACAAGGCUACCAGCAACAUCUGUACAGCUCAGGCCCUCUUGGCGAAUAUGGCUGCCAUGUUUGCAAUCUACCAUGGUUCCCAUGGGCUGGAGCAUAUU: 0.112 ratio
GGUGGUGCCACACGAAUCCCUGCAGUGAAAGAGAAGAUCAGCAAGUUUUUUGGUAAAGAACUCAGCACAACAUUAAAUGCAGAUGAAGCUGUCACUCGAGGCUGUGCUCUGCAGUGUGCA: 0.323 ratio

Sample 4 — technique: RNA Bind-n-Seq; molecule type: RNA; sample: in vitro; tested at: 365 nM; reference: no-protein control; reading: higher = stronger binding; measurement: RBNS enrichment (R)
Target: RNA binding protein fox-1 homolog 2, RRM domain, GST-SBP tag (RBFOX2, Homo sapiens, UniProt O43251-10, residues 100-194)
Notes: natural RNA segment, single round, ends assumed
Shared flanks, not repeated: GGGAGUUCUACAGUCCGACGAUC … UGGAAUUCUCGGGUGCCAA
Construct (chain): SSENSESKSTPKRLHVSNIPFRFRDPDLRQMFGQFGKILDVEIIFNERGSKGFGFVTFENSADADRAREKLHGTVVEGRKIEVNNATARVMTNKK
CACCUCCUCUUGUGGGAAGGAGGUCUCAGCCCCACCUCGCAUCUUCACCUGCCCUUGGUGUGGACACACCCUCUCAUGCUACCAGCACCAUAAUCCAGUGGGGGUGACUG: 0.582
AACGCUUAACCUUCUGUUAGCCAAUAUAUAAUUAAUGCAUGCUACUCCAUGAAUUUCUGCCUAUGAGGCAUUUGCCUCCAAGUAGCCUAUCCUUCAGAAUUACUUGUAGG: 6.12
GCAUAGUUUGGAGCUAGGGAGGGACUGUCAGCCUGGAGGUUUGGAGACUCAUUCUGGAAUCUAGUGUGGGUCAAGCCAACUUCAGGGAGAGGCUGAGCCAGGGUAGGAGU: 1.22
CUCUCUUCUGGACCAAUUCCUUAACCUUGGGAAAGCUCAGGGCCUAGUAUCAGGGUGGGUGAUAGAACCCGAAAUGGAAGAGGACGGGAAAGUGCCUGGGCUGUGCUUGU: 3.2
UUUAAGCUGCAAAUUGAGUACACUGGGAAUCAACAAAUUUGAUGAAGCCUGUCUGUCUCUUCACCAGUGGAGUGAGUGCAGCAGUUAGAAAGAGAAGCAAUAUUGUGCAA: 0.423
CCACCCCCUUCCCCUACUCUAGGGGAGAGAGCUGCUAGUGAGAUGACUGUUUUAUAAAGAAAUGGAAAAAAGUGAAAUAAAAAAUAUGUUGAAUCAGAUUUUUUAAAAGG: 0.799
UUUUUAGUAUUUUAACAUUUAUUUUAAUCCUGAAGACACUUUUUUGAUUGUGUUUCGUAAGAGACAACAUGGCCUCCUAAGGUGCAAUCCUGCCGCUAUAGUGAGCUAAU: 0.354
UUGGUAUUCGCUUGAGAAAAAAAGAAUAGUUGAACCUAUUUCUCUUUCUUUACAAGAUGGGUCCAGGAUUCCUCUUUUCUCUGCCAUAAAUGAUUAAUUAAAUAGCUUUU: 0.561
UUUAAUGUUGCUUAGCAUAAAAAAUACUUUCUUACAGUAAUCUUCUUUAAAUUGGGUAUAUGAAAACAUUACCAACUCUUGUUUUUCUAUAAAGAAAUACAGUUAAUAAC: 0.857
UGUGUAUUAAGCUUUUCAAACAAUGGAGGGGAUGGAGAGCCCUGGUGUCCUGACGGGAGCCAGGUCGGCCUGAGAGCUGUGCCGCUCCUCUGUCUUGUCAGUGGAGGUGC: 0.496
ACUGGUGAAUUGGGGGAAAUAGAAGGAACUAGUAACUGAGACUCCUCCAGCCUCCUCCCUAUUGGAAUCCCAAUGGCUCCUGGAGUAGGAAAAAAGUUUAAACUACAUUC: 0.328
UGUCACCUUCUUGGACUUAUUCCCCACCUGAUACCUUAUAGAGAAAAGUGUGAAUUCAGGUGGAGAGUAGGCCCAGGCCCCAUGAGGCACCAGUGGAAGCACAGCUCCAA: 0.202

Sample 5 — target: CCNB1, cyclin fold, Cln2 fusion (human); technique: yeast growth competition, sequencing; sample: yeast; notes: strong parent motif; reference: not given; reading: higher = stronger binding; measurement: normalised enrichment score
Starting sequence: MICAL3 docking peptide (human); LQLRRQLSFSEDS; partner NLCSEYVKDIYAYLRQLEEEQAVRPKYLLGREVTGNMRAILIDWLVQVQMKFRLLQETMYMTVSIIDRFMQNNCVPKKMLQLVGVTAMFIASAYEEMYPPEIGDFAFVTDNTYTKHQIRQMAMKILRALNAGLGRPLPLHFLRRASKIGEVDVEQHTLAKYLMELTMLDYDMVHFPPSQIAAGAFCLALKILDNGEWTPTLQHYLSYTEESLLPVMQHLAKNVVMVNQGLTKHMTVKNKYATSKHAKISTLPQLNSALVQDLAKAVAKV
F9Q: 0.285
E11L: 2.6
E11D: 4.88
R4N: 3.55
S8L: 1.85
Q6K: 5.6
F9S: 0.0464
Q2C: 5
R4Y: 3.77
R4A: 4.45
L7V: 0.352
Q6F: 0.345
F9E: 0.169
S8Y: 1.11
R4T: 2.26
Q6D: 0.0628
Q2E: 4.2
Q6E: 3.39
Q2S: 5.27
F9H: -0.0558
S8M: 1.72
Q2H: 4.58
Q2V: 4.54
R5K: 1.87
D12I: 3.85

Some of these lines once more (sample 2):
ATAGACCG: 0.0525
CGATGATA: 0.155
GGTGAAGA: 0.0769
ACTTTTAT: -0.0586
GGGGTTTA: -0.197
CTCTGTCC: 0.0782
CTCGCGAG: 0.122
